Published values from different studies.
Protocols differ between the studies behind these lines. Values joined by “and” are separate records of one study, mostly repeats; a detail may differ. ± gives the spread as reported.

`Cc1cc(NC2CCN(C(=O)OC3CCN(C(=O)/C=C/CN(C)C)C3)CC2)n2ncc(C(C)C)c2n1` (stereo not shown) — result for “patients with adverse event”: 28% (Phase I dose escalation CTCAE v4.0, refers to: Anemia; patients with advanced solid tumours; dose not given, all dose schedules any grade).
For `COc1cccc(-c2n[nH]c(SCc3ccccn3)n2)c1OC`, the plasma concentration was 5310 ng/mL (Sprague-Dawley rats, both sexes; oral dietary, 100 mg/kg/day, day 90, 0 h).
The tissue/plasma ratio of `Cc1nc2ccc(OCc3ccc(C(F)(F)F)cc3)cc2[nH]1` is reported as 12.9 ± 1.5 (Balb/c mouse, male, liver; intravenous, 1 mg/kg, 3 h; relative to: tissue over plasma).
For `N#Cc1ccc2c(c1)[C@H]1CCCN(C(=O)c3ccc4[nH]cnc4c3)[C@H]1C2`, “cortisol level change” read -141 nmol/L (human; 20 mg, day 15; relative to: baseline).
With `CO[C@H]1C[C@@H]2CC[C@@H](C)[C@@](O)(O2)C(=O)C(=O)N2CCCC[C@H]2C(=O)O[C@H]([C@H](C)C[C@@H]2CC[C@@H](O)[C@H](OC)C2)CC(=O)[C@H](C)/C=C(\C)[C@@H](O)[C@@H](OC)C(=O)[C@H](C)C[C@H](C)/C=C/C=C/C=C/1C` the heart rate was 33.5 ± 1.9 beats/min (healthy adult horses; oral, 0.06 mg/kg, 72 h).
The CL/F of `CC1(COc2ccc3c(c2)ncn3-c2ccc3cccc(N4CCC(N)CC4)c3n2)COC1` is reported as 27.9 L/h/m² (human patients, recurrent/progressive HGG or DIPG, serum; oral, 220 mg/m^2, day 1, median).
`C[C@@H](Nc1cc(F)cc(F)c1)c1cc(C(=O)N(C)C)cc2c(=O)cc(N3CCOCC3)oc12`: “any dose reduction” 40% (advanced solid tumour patients; oral, 120 mg twice daily, continuous monotherapy).
The DT50 water of `C[C@H]1C=C(Cc2ccccc2)C(=O)O1` is reported as 7.82 days (Staffordshire loam sediment, aerobic dark; 20 °C).
The renal clearance of `CCc1nc(C(N)=O)c(Nc2ccc(N3CCC(N4CCN(C)CC4)CC3)c(OC)c2)nc1NC1CCOCC1` is reported as 12.3 mL/min (Japanese patients, plasma and urine; oral, 40 mg, cycle 1 day 28, multiple doses, median).
`O=C(Nc1nc2cccc(-c3ccc(CN4CCS(=O)(=O)CC4)cc3)n2n1)C1CC1`: “treatment-emergent adverse events” 0% (refers to: lipase increased; human rheumatoid arthritis patients; oral, 75 mg once daily, 4 weeks, regardless of relatedness).
For `O=C(N[C@H](Cc1c[nH]c2ccccc12)C(=O)Nc1ccncc1)c1ccc(-c2cc(C(F)(F)F)ccc2F)cc1F`, the concentration was 13.8 µM (Swiss Webster mouse, female, lung; oral, 50 mg/kg, 2 h, 20% HPβCD vehicle).
The heart uptake of `O=C(O)CCCOc1ccc([18F])cc1-c1cc(-c2ccccc2C(F)(F)F)n(-c2ccccc2)n1` is reported as 15.6 ± 2.7 SUV (healthy Lewis rat; dose not given).
For `CCN1CCN(Cc2ccc(NC(=O)c3ccc(C)c(NC(=O)c4cncc(-c5cccs5)c4)c3)cc2C(F)(F)F)CC1`, the AUC/dose was 0.11 kg·µg·h/mL/mg (C57BL/6 mouse, plasma; intraperitoneal, 30 mg/kg, 0.25 to 8.0 h, single dose).
`CCc1nn(C)c2nc(-c3ccc(C(=O)O)cc3)nc(NCc3ccc(F)cc3)c12` gave a body weight of 19.9 g and 20.6 g and 19.7 g and 21.8 g (NSG mice; dose not given, day 2 of treatment).
The k2 of `O=C(OC(C(F)(F)F)C(F)(F)F)N1CCN(Cc2cccc(Oc3ccccc3)c2)CC1` is reported as 0.04 min⁻¹ (PET blocking study; rhesus monkey, brain THA; 0.03 mg/kg, compound pretreatment, added: [18F]T-401 tracer).
`C[C@@H](O)CCOC(=O)C[C@@H](C)O` has a heart rate of 73 beats/min (human; oral drink, dose not given, 180 min post dose, mean).
`CCn1cc(C(=O)N2CCOCC2)c(=O)c2cc(NC3Cc4ccccc4C3)cnc21` gave a CL/F of 32.5 L/h (human, fed; oral suspension, 600 mg/day twice daily, day 8, arithmetic mean).
`Cc1ccc([C@@H]2O[C@H](CO)[C@@H](O)[C@H](O)[C@H]2O)cc1Cc1ccc(-c2ccc(F)cc2)s1`: “urinary calcium excretion change” -31.1 mg (Japanese type 2 diabetes patients; 100 mg, day 6, 24 h urine collection; relative to: baseline).
For `CS(=O)(=O)c1ccc(-c2nc3ccccc3n2CC(=O)N/N=C/c2ccc(Cl)cc2)cc1`, the ulcer index was 6.3% (rat, stomach; concentration not given, 4 h; relative to: indomethacin).
With `Cc1c(C(=O)O)ccc2c3n(nc12)[C@@H]1[C@H](C3)N(CC2CC2)[C@@]2(C(=O)Nc3cc(Cl)ccc32)[C@H]1c1cccc(Cl)c1F` the plasma concentration was 0.284 µM (female BALB/c nude mice, SJSA-1 xenograft, plasma; oral, 1 mg/kg twice daily, 31 h).
`Cc1ccc(Sc2ccccc2N2CCNCC2)c(C)c1`: “participants with TEAE” 0% (refers to: eosinophil count increased; healthy adult women; oral, 10 mg daily, 12 days).
Under “body weight change”, `CCc1cc(C(=O)NC)c2nccc(N3CCc4c(cc(Cn5ccnc5)cc4-c4cn(C)nc4C(F)(F)F)C3=O)c2c1` is recorded as 6.9% (Sprague Dawley rat; oral, 50 mg/kg once daily, day 3, 7-day toxicology study; relative to: day 1).
For `O=C([O-])CCCCCCCNC(=O)c1ccccc1O.[Na+]`, the AUC(0-24h) was 1470 ng·h/mL (human; oral, dose not given, steady state).
Under “subjects with TEAE”, `CC(C)(C(=O)N1CCOc2c(C#N)cncc2C1)C(F)F` is recorded as 0% (refers to: cutaneous vasculitis; human, both sexes; oral, 20 mg once daily, 14 days, multiple ascending dose).
`CCc1c(-c2ccccc2)c(-c2ccccc2)nn1-c1ccccc1-c1cccc(OCC(=O)O)c1`: “AUMC extrapolated observed” 14% and 8.86% and 20.7% (Sprague-Dawley rat; intravenous, dose not given).
`NC1(C(=O)N[C@@H](CCO)c2ccc(Cl)cc2)CCN(c2nc[nH]c3nccc2-3)CC1`: “incidence of Amnesia” 0% (metastatic CRPC patients; 480 mg b.i.d., grade 3 to 4, treatment-related, added: enzalutamide 160 mg daily).
For `C[C@H](Cn1cnc2c(N)ncnc21)OCP(=O)(O)O`, “apparent volume of distribution” read 2340 L (population PK model; human, plasma; oral, dose not given, reduced model bootstrap median).
Under “trough concentration (C24)”, `C[C@@H]1CCO[C@H]2Cn3cc(C(=O)NCc4ccc(F)cc4F)c(=O)c(O)c3C(=O)N12` is recorded as 567 ng/mL (human paediatric patients, weight sample B to under sample C kg, plasma; oral, 50 mg film-coated tablet, 24 h, steady state, geometric mean, population PK post-hoc, N 6).
Under “patients with adverse event”, `Cc1ccc(C(=O)N(CCCN)C(c2nc3snc(C)c3c(=O)n2Cc2ccccc2)C(C)C)cc1` (stereo not shown) is recorded as 0% (hypophosphataemia grade ≥3 (CTCAE); human patients; intravenous, 4 mg/day).
The fraction unbound of `CNC(=O)c1cc(Cl)c(OC(C)(C)C(=O)O)cc1OC[C@@H](O)CN1CCC2(CC1)Cc1cc(Cl)ccc1O2` is reported as 0.056 (equilibrium dialysis; rat, lung homogenate).
The clearance of `C[C@H]1Oc2cc(cnc2N)-c2c(nn(C)c2C#N)CN(C)C(=O)c2ccc(F)cc21` is reported as 137 mL/min (population PK; patients with mild hepatic impairment (NCI sample A), plasma; oral, 100 mg, median, single dose).
With `CN1CCC[C@H](CN2c3ccccc3Sc3ccccc32)C1.Cl` the Cmax was 10200 ng/g (fasted female ICR mouse, lung; oral, 16 mg/kg).
`O=C(/C=C/c1cccc(S(=O)(=O)Nc2ccccc2)c1)NO` gave a Vss of 20.3 L/m² (human patients, plasma; 2000 mg/m^2).
The AUC(0-t) of `CNC(=O)c1ccc(-c2cnc3ncc(Cc4ccc5ncccc5c4)n3n2)cc1F` is reported as 6590 ng·h/mL (human mild hepatic impairment NCI; oral, 200 mg single dose, geometric mean).
`C=CCN1CC(=O)N2[C@@H](Cc3ccc(O)cc3F)C(=O)N(Cc3cccc(N4CC(N5CCN(CC)CC5)C4)n3)C[C@@H]2N1C(=O)NCc1ccccc1`: “treatment-related adverse events” 0% (refers to: Vomiting; advanced solid tumour patients; oral, 100 mg twice daily, expansion part, grade ≥3).
`CNC(=O)c1ccc(-c2cnc3ncc(Cc4ccc5ncccc5c4)n3n2)cc1F`: “Nausea dose reduction/interruption” 0% (Japanese patients; oral, 400 mg, grade 3/4).
`CN(c1ccc(F)cc1)c1c(-c2cc(Cl)ccn2)nc2ccccn12` has a CC50 of 31.6 µM (peritoneal macrophages, Swiss mice; 5 days, 5% fetal calf serum).
Under “share of patients”, `CCOc1c([C@H](C)n2nc(C)c3c(N)ncnc32)cc(Cl)c(F)c1[C@@H]1CNC(=O)C1` is recorded as 100% (refers to: QTcF ≤ 450 ms; previously treated B-cell malignancy; oral, dose not given, all doses, overall population).
`COc1c(C)c2c(c(O[C@@H]3O[C@H](C(=O)O)[C@@H](O)[C@H](O)[C@H]3O)c1C/C=C(\C)CCC(=O)O)C(=O)OC2` — result for “AUClast geometric mean ratio”: 73% (healthy humans; oral, dose not given, added: isavuconazole co-administration; relative to: with isavuconazole over MMF alone).
Under “QTcB change from baseline”, `CC[C@H](C)[C@H](NC(=O)[C@H](Cc1ccccc1)NC(=O)[C@H](CCC(=O)O)NC(=O)[C@H](CCCCNC(=O)COCCOCCNC(=O)COCCOCCNC(=O)CC[C@H](NC(=O)CCCCCCCCCCCCCCCCC(=O)O)C(=O)O)NC(=O)[C@H](C)NC(=O)[C@H](C)NC(=O)[C@H](CCC(N)=O)NC(=O)CNC(=O)[C@H](CCC(=O)O)NC(=O)[C@H](CC(C)C)NC(=O)[C@H](Cc1ccc(O)cc1)NC(=O)[C@H](CO)NC(=O)[C@H](CO)NC(=O)[C@@H](NC(=O)[C@H](CC(=O)O)NC(=O)[C@H](CO)NC(=O)[C@@H](NC(=O)[C@H](Cc1ccccc1)NC(=O)[C@@H](NC(=O)CNC(=O)[C@H](CCC(=O)O)NC(=O)C(C)(C)NC(=O)[C@@H](N)Cc1cnc[nH]1)[C@@H](C)O)[C@@H](C)O)C(C)C)C(=O)N[C@@H](C)C(=O)N[C@@H](Cc1c[nH]c2ccccc12)C(=O)N[C@@H](CC(C)C)C(=O)N[C@H](C(=O)N[C@@H](CCCNC(=N)N)C(=O)NCC(=O)N[C@@H](CCCNC(=N)N)C(=O)NCC(=O)O)C(C)C` is recorded as 6.3 ms (12-lead Holter ECG; healthy humans; subcutaneous, 1.5 mg once weekly, 30 h, steady state; relative to: placebo).
With `Cc1cccc(CNC(=O)c2cn(CCNC(=O)c3ccccc3S)c3cc4c(cc3c2=O)OC(F)(F)O4)n1` the AUC(0-t) was 143 ± 9.81 ng·h/mL (Sprague-Dawley rat, male, plasma; intravenous, 5 mg/kg of parent compound).
Under “treatment-emergent adverse events”, `O=C(COc1ccc(Cl)cc1)NC12CC(c3nnc([C@H]4C[C@@H](OC(F)(F)F)C4)o3)(C1)C2` is recorded as 5.6% (abdominal discomfort; human, both sexes; oral, dose not given, single ascending dose, fasted, all doses; relative to: subjects).
`C=CC(=O)NC1CCN(c2ncc3ncnc(Nc4ccc(Oc5ccc6c(c5)ncn6C)c(C)c4)c3n2)CC1`: “adverse events incidence” 6% (refers to: total drug-related adverse events; human male; oral, dose not given, AEs, treatment-related, on drug, CTCAE).

Excerpt of the above:
Under “body weight change”, `CCc1cc(C(=O)NC)c2nccc(N3CCc4c(cc(Cn5ccnc5)cc4-c4cn(C)nc4C(F)(F)F)C3=O)c2c1` is recorded as 6.9% (Sprague Dawley rat; oral, 50 mg/kg once daily, day 3, 7-day toxicology study; relative to: day 1).
For `O=C([O-])CCCCCCCNC(=O)c1ccccc1O.[Na+]`, the AUC(0-24h) was 1470 ng·h/mL (human; oral, dose not given, steady state).
